Experimental data collected from several papers.
Compare with care: the assays were run in different laboratories. ± marks the error that the study gave.
ALB: Albumin (ALB, Homo sapiens, UniProt P02768)
ABCG2: Broad substrate specificity ATP-binding cassette transporter ABCG2 (ABCG2, Homo sapiens, UniProt Q9UNQ0)
Chain of UniProt Q9UNQ0 (whole entry, looked up): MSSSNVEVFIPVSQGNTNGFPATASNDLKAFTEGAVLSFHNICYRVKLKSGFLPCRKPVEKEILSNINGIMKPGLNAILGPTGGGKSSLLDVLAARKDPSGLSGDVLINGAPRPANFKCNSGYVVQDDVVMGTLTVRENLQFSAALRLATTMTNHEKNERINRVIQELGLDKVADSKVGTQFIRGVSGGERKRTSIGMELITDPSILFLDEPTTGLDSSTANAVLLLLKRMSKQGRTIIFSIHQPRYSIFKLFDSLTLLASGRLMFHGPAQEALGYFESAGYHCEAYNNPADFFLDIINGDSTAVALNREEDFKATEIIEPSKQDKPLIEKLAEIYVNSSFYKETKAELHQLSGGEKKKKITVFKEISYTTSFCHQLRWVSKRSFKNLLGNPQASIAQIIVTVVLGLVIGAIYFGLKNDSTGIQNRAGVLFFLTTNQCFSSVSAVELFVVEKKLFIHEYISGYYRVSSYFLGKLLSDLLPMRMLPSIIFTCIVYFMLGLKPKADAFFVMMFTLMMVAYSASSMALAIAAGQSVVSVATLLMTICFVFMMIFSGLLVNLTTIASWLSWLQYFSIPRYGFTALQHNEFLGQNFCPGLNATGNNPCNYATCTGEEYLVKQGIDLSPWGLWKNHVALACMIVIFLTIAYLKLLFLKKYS
Chain of UniProt Q09128 (whole entry, looked up): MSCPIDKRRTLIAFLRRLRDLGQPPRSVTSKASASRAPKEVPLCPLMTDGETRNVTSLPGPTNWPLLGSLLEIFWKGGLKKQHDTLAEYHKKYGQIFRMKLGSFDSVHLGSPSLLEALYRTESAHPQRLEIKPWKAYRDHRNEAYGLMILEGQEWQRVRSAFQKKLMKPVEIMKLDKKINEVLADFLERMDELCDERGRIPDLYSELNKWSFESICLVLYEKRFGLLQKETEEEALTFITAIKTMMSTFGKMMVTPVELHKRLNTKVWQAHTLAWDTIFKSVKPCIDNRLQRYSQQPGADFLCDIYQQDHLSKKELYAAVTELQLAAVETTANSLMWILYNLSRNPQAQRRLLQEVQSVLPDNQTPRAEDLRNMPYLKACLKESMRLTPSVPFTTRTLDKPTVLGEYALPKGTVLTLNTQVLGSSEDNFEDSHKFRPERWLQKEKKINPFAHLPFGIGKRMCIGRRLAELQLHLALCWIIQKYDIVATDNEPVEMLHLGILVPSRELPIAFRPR
Chain of UniProt P08246 (whole entry, looked up): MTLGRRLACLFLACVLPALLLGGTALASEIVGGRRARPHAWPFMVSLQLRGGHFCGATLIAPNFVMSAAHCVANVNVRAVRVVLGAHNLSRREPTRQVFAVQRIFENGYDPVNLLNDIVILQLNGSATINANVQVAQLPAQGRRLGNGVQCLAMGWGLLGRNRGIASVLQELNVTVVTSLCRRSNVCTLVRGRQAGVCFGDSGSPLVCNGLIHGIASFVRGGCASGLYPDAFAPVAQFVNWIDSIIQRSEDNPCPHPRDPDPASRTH
Chain of UniProt P45748 (whole entry, looked up): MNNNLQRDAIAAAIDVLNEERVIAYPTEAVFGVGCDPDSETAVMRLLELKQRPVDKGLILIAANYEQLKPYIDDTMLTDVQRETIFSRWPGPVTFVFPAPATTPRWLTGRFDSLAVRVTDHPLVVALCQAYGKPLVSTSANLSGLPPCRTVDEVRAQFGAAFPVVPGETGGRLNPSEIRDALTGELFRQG
Chain of UniProt P15144 (whole entry, looked up): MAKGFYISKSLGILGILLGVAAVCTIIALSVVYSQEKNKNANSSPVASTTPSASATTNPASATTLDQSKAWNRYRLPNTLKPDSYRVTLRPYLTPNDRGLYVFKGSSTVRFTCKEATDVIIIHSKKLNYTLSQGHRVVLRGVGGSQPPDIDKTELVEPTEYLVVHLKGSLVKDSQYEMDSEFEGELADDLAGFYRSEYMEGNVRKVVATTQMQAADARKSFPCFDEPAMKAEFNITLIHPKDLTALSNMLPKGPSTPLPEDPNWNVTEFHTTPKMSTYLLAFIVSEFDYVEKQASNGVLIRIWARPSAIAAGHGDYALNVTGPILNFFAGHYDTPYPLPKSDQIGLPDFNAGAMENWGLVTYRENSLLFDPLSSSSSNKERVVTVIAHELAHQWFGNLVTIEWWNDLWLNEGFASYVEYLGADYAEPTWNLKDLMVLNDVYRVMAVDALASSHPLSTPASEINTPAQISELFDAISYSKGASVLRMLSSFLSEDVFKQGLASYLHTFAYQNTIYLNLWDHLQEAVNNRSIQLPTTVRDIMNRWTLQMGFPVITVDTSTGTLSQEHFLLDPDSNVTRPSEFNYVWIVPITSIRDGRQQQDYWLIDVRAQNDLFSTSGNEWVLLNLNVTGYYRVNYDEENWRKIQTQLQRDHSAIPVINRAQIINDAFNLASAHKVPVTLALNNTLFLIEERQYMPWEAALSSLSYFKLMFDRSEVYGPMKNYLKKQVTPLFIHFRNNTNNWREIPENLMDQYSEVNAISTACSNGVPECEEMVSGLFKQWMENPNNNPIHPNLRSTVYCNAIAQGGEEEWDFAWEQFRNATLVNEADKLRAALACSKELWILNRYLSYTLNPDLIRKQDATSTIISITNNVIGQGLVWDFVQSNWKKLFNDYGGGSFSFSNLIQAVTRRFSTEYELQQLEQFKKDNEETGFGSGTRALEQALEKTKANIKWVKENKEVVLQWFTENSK

Structure (SMILES) = Cc1cc(C)c(-c2cc(C)c(OP(=O)([O-])OCCC[C@H](C(=O)[O-])N3CCN(CC(=O)[O-])CCN(Cc4ccccc4[O-])CCN(CC(=O)[O-])CC3)cc2C)c(C)c1.[Gd+3]; target = ALB; assay = variable temperature NMRD; test system = HSA-bound complex; conditions = concentration not given; measurement = activation enthalpy of water exchange; value = 8.34 kcal/mol
Structure (SMILES) = CN(C)c1ccc(/C=C/C(=O)c2ccc3ccccc3c2)cc1; target = ABCG2; assay = mitoxantrone efflux, flow cytometry; test system = HEK293 transfected with ABCG2; conditions = 5 µM, 30 min, together with: mitoxantrone; scale = relative to: 5 µM GF120918 as 100%; measurement = inhibition; value = 17.4 ± 8.1%
Structure (SMILES) = [11CH3]Oc1ccc(C(=O)Nc2c(-c3cccs3)nc3ccccn23)cc1; target = δ-containing GABAA receptor; test system = pig (female Landrace × Yorkshire × Duroc), thalamus; conditions = intravenous bolus, dose not given; scale = relative to: baseline; measurement = total distribution volume; value = 3.8 mL/cm³
Structure (SMILES) = O=C(O)C1OC(Oc2ccc3c(=O)cc(-c4ccccc4)oc3c2)C(O)C(O)C1O (stereo not shown); target = ABCG2; assay = glucuronide efflux, substrate; test system = HeLa cells expressing UGT1A9; measurement = Km; value = 9 ± 1.5 µM
Structure (SMILES) = C[C@@H](O)[C@H](NC(=O)OP(=O)(O)OC[C@H]1O[C@@H](n2cnc3c(N)ncnc32)[C@H](O)[C@@H]1O)C(=O)O; target = Threonylcarbamoyl-AMP synthase (tsaC, Escherichia coli, UniProt P45748); assay = HPLC; test system = HEPES buffer; conditions = pH 7.5, 37 °C, bound in complex with target, together with: TsaC; measurement = half-life; value = 2.67 h
Structure (SMILES) = Cc1ccc(NCc2ccccc2)cc1Nc1nccc(-c2cccnc2)n1; target = ABCG2; test system = MCF7-FLV1000, overexpressing; conditions = together with: mitoxantrone 5 µM; measurement = IC20; value = 1150 nM
Structure (SMILES) = O=C(/C=C/c1ccccc1F)c1ccc2ccccc2c1; target = ABCG2; assay = mitoxantrone efflux, flow cytometry; test system = HEK293 transfected with ABCG2; conditions = 5 µM, 30 min, together with: mitoxantrone; scale = relative to: 5 µM GF120918 as 100%; measurement = inhibition; value = 29 ± 11%
Structure (SMILES) = O=C(O)[C@@H]1C[C@@H](O)CN1C(=O)[C@@H]1CCCN1; target = iron(III) ion; assay = complex formation, from log β; test system = aqueous 0.15 M NaCl; conditions = 25 °C, MAH−1 complex species; measurement = −ΔG; value = 12.6 kcal/mol
Structure (SMILES) = [64Cu+2].c1ccc(CNCc2ccc(CN3CCCN4CCNCCCN(CC4)CC3)cc2)nc1; target = CXCR4; test system = NOD/SCID mouse, U87 and U87-stb-CXCR4 xenografts, bladder; conditions = iv, 120 min, ex vivo; measurement = tissue uptake; value = 1.81 ± 0.57 %ID/g
Structure (SMILES) = CCCCCCCCCCCCCCCC(=O)OCC(CSC[C@H](N)C(=O)N[C@@H](CO)C(=O)N[C@@H](CCCCN)C(=O)N[C@@H](CCCCN)C(=O)N[C@@H](CCCCN)C(=O)N[C@@H](CCCCN)C(=O)NCCCCCC(=O)N[C@@H](CCCCN)C(=O)N[C@@H](CC(C)C)C(=O)N[C@H](C(=O)N[C@@H](Cc1ccccc1)C(=O)N[C@@H](Cc1ccccc1)C(=O)N[C@@H](Cc1ccc2ccccc2c1)C(=O)O)C(C)C)OC(=O)CCCCCCCCCCCCCCC (stereo partly shown); target = Amyloid-beta precursor protein, fibrillar amyloid-beta (APP, Homo sapiens, UniProt P05067); assay = dynamic light scattering; test system = supernatant; conditions = with amyloid-beta; measurement = hydrodynamic diameter; value = 170 to 280 nm
Structure (SMILES) = O=C(/C=C/c1ccc(F)cc1)c1ccc2ccccc2c1; target = ABCG2; assay = mitoxantrone efflux, flow cytometry; test system = HEK293 transfected with ABCG2; conditions = 5 µM, 30 min, together with: mitoxantrone; scale = relative to: 5 µM GF120918 as 100%; measurement = inhibition; value = 14.6 ± 6.9%
Structure (SMILES) = Cc1cc(C)c(-c2cc(C)c(OP(=O)([O-])OCCC[C@H](C(=O)[O-])N3CCN(CC(=O)[O-])CCN(C(C(=O)[O-])C(=O)[O-])CCN(CC(=O)[O-])CC3)cc2C)c(C)c1.[Gd+3]; target = ALB; assay = albumin binding, variable temperature NMRD fit; test system = albumin-bound complex; conditions = 0.1 mM, pH 7.4, fit 5-35 °C data, together with: HSA 0.66 mM; measurement = rotational correlation time; value = 4.7 ns
Structure (SMILES) = O=C(O)C1OC(Oc2cccc(-c3cc(=O)c4ccccc4o3)c2)C(O)C(O)C1O (stereo not shown); target = ABCG2; assay = substrate, vesicular transport; scale = relative to: BCRP vesicles over HeLa-UGT1A9 cells; measurement = Km ratio; value = ~3 fold
Structure (SMILES) = CN1CC(=O)N[C@@H](CCCNC(=N)N)C(=O)NCC(=O)N[C@@H](CS)C(=O)NCC(=O)N[C@@H](CC(N)=O)C1=O; target = Aminopeptidase N (ANPEP, Homo sapiens, UniProt P15144); assay = substrate, mass spectrometry; conditions = 40 min; measurement = peptide cleavage; value = no effect
Structure (SMILES) = Cc1cn(-c2ccc(-c3cc(C)c(N[C@@H](C)c4ccc(F)cc4)nn3)nc2O[11CH3])cn1; target = Psen1, in γ-secretase complex (Mus musculus, UniProt P49769); assay = PET-CT; test system = male C57BL/6 mice, brain; conditions = intravenous; measurement = time to peak brain uptake; value = 3 min
Structure (SMILES) = C=C1CCC(O)CC1=CC=C1CCCC2(C)C1CCC2C(C)(O)CCCCCC (stereo not shown); target = 1,25-dihydroxyvitamin D(3) 24-hydroxylase, mitochondrial (Rattus norvegicus, UniProt Q09128); assay = substrate; test system = phospholipid vesicles; conditions = 1 h, 0.025 mol per mol phospholipid, 1 µM enzyme; measurement = number of products; value = 2
Structure (SMILES) = O=C(/C=C/c1cccc2ccccc12)c1ccc2c(c1)OCO2; target = ABCG2; assay = mitoxantrone efflux, flow cytometry; test system = HEK293 transfected with ABCG2; conditions = 5 µM, 30 min, together with: mitoxantrone; scale = relative to: 5 µM GF120918 as 100%; measurement = inhibition; value = 57.2 ± 8.3%
Structure (SMILES) = O=C(O)C1OC(Oc2ccccc2-c2cc(=O)c3ccccc3o2)C(O)C(O)C1O (stereo not shown); target = ABCG2; assay = substrate; scale = relative to: membrane vesicles over HeLa-UGT1A9 cells; measurement = difference in Km; value = < 50%
Structure (SMILES) = COc1cc(OC)c(C(=O)/C=C/c2cccc([N+](=O)[O-])c2)c(OC)c1; target = ABCG2; assay = mitoxantrone efflux, flow cytometry; test system = HEK293 transfected with ABCG2; conditions = 5 µM, 30 min, together with: mitoxantrone; scale = relative to: 5 µM GF120918 as 100%; measurement = inhibition; value = 55.3 ± 8.9%
Structure (SMILES) = [64Cu+2].c1cnc(CNCc2ccc(CN3CCCN4CCNCCCN(CC4)CC3)cc2)nc1; target = CXCR4; test system = NOD/SCID mouse, U87 and U87-stb-CXCR4 xenografts, stomach; conditions = iv, 240 min, ex vivo; measurement = tissue uptake; value = 2.41 ± 0.33 %ID/g
Structure (SMILES) = CC(=O)N[C@@H](C)C(=O)N[C@@H](CCC(=O)O)C(=O)N[C@@H](CC(=O)O)C(=O)N[C@H](C(=O)NCC(=O)N[C@@H](CO)C(=O)N[C@@H](CC(N)=O)C(=O)N[C@@H](CCCCN)C(=O)NCC(=O)N[C@@H](C)C(N)=O)C(C)C; target = Neutrophil elastase (ELANE, Homo sapiens, UniProt P08246); assay = substrate, pulse proteolysis; conditions = 5 min, together with: 1 M urea; measurement = cleavage by neutrophil elastase; value = ~8%
Structure (SMILES) = COc1cc(-c2nc3ccccc3s2)cc(CN2Cc3cccc(n3)CN(CC(=O)O)Cc3cccc(n3)C2)c1O; target = Cu2+ complex [MHL]+; assay = UV-vis titration; conditions = room temperature; measurement = stability constant; value = 3.01 log K
Structure (SMILES) = O=C(O)C1OC(Oc2c(-c3ccccc3)oc3ccc(O)cc3c2=O)C(O)C(O)C1O (stereo not shown); target = ABCG2; assay = glucuronide efflux, substrate; test system = HeLa cells expressing UGT1A9; measurement = Km; value = 31.9 ± 7.1 µM
Structure (SMILES) = Cc1cc(C)c(-c2cc(C)c(OP(=O)([O-])OCCC[C@H](C(=O)[O-])N3CCN(CC(=O)[O-])CCN(Cc4cc([N+](=O)[O-])ccc4[O-])CCN(CC(=O)[O-])CC3)cc2C)c(C)c1.[Gd+3]; target = ALB; assay = albumin binding, variable temperature NMRD fit; test system = albumin-bound complex; conditions = 0.1 mM, pH 7.4, fit 5-35 °C data, together with: HSA 0.66 mM; measurement = rotational correlation time; value = 11 ns
Structure (SMILES) = Cc1cn(-c2cc(NC(=O)c3ccc(C)c(Nc4ncccn4)c3)cc(C(F)(F)F)c2)cn1; target = ABCG2; test system = MCF7-FLV1000, overexpressing; conditions = together with: mitoxantrone 5 µM; measurement = IC20; value = 1010 nM
Structure (SMILES) = O=C(O)C1OC(Oc2c(-c3ccccc3O)oc3ccccc3c2=O)C(O)C(O)C1O (stereo not shown); target = ABCG2; assay = glucuronide efflux, substrate; test system = HeLa cells expressing UGT1A9; measurement = Km; value = 35.9 ± 14.9 µM
Structure (SMILES) = Cc1ccc(/C=C/C(=O)c2ccc3ccccc3c2)o1; target = ABCG2; assay = mitoxantrone efflux, flow cytometry; test system = HEK293 transfected with ABCG2; conditions = 5 µM, 30 min, together with: mitoxantrone; scale = relative to: 5 µM GF120918 as 100%; measurement = inhibition; value = 23.2 ± 7.7%
Structure (SMILES) = Cc1sc2c(c1C)C(c1ccc(Cl)cc1)=N[C@@H](CC(=O)NCCOCCOCCNC(=O)C(c1ccc(CNc3cccc4c3CN(C3CCC(=O)NC3=O)C4=O)cc1)N1CCOCC1)c1nnc(C)n1-2 (stereo partly shown); target = ALB; assay = HPLC, immobilised HSA column; conditions = concentration not given; measurement = HSA binding; value = 90%
Structure (SMILES) = CN1C(=O)[C@@H](Cc2ccc(O)c(I)c2)NC(=O)CNC(=O)[C@H](Cc2ccc3ccccc3c2)NC(=O)[C@H](CCCNC(=N)N)NC(=O)[C@H]1CCCNC(=O)c1ccc(CNC(=O)CN2CCN(CC(=O)O)CCN(CC(=O)O)CCN(CC(=O)O)CC2)cc1 [lutetium-177 labelled]; target = ALB; assay = HPLC on HSA column; measurement = plasma protein binding; value = 96.6%
Structure (SMILES) = O=C(/C=C/c1cccc2ccccc12)c1ccccc1O; target = ABCG2; assay = mitoxantrone efflux, flow cytometry; test system = HEK293 transfected with ABCG2; conditions = 5 µM, 30 min, together with: mitoxantrone; scale = relative to: 5 µM GF120918 as 100%; measurement = inhibition; value = 49.2 ± 7.2%
Structure (SMILES) = O=C(O)C1OC(Oc2ccc3oc(-c4ccccc4)cc(=O)c3c2)C(O)C(O)C1O (stereo not shown); target = ABCG2; assay = substrate, glucuronide efflux; test system = HeLa-UGT1A9 cells; measurement = Vmax; value = 151 ± 8.6 pmol/mg/min
Structure (SMILES) = O=C(/C=C/c1cccc2ccccc12)c1cccc(O)c1; target = ABCG2; assay = mitoxantrone efflux, flow cytometry; test system = HEK293 transfected with ABCG2; conditions = 5 µM, 30 min, together with: mitoxantrone; scale = relative to: 5 µM GF120918 as 100%; measurement = inhibition; value = 57 ± 6.7%
Structure (SMILES) = O=C(O)C1OC(Oc2ccc(-c3cc(=O)c4ccccc4o3)cc2)C(O)C(O)C1O (stereo not shown); target = ABCG2; assay = substrate, glucuronide efflux; test system = HeLa-UGT1A9 cells; measurement = Vmax; value = 111 ± 6.9 pmol/mg/min
Structure (SMILES) = Cc1cc(C)c(-c2cc(C)c(OP(=O)([O-])OCCC[C@H](C(=O)[O-])N3CCN(CC(=O)[O-])CCN(CC(=O)NCCC(=O)[O-])CCN(CC(=O)[O-])CC3)cc2C)c(C)c1.[Gd+3]; target = ALB; assay = albumin binding, variable temperature NMRD fit; test system = albumin-bound complex; conditions = 0.1 mM, pH 7.4, 37 °C, fit 5-35 °C data, together with: HSA 0.66 mM; measurement = water residency time; value = 579 ns

Repeated from above:
Structure (SMILES) = CN(C)c1ccc(/C=C/C(=O)c2ccc3ccccc3c2)cc1; target = ABCG2; assay = mitoxantrone efflux, flow cytometry; test system = HEK293 transfected with ABCG2; conditions = 5 µM, 30 min, together with: mitoxantrone; scale = relative to: 5 µM GF120918 as 100%; measurement = inhibition; value = 17.4 ± 8.1%
Structure (SMILES) = O=C(O)C1OC(Oc2c(-c3ccccc3)oc3ccc(O)cc3c2=O)C(O)C(O)C1O (stereo not shown); target = ABCG2; assay = glucuronide efflux, substrate; test system = HeLa cells expressing UGT1A9; measurement = Km; value = 31.9 ± 7.1 µM
Structure (SMILES) = O=C(O)[C@@H]1C[C@@H](O)CN1C(=O)[C@@H]1CCCN1; target = iron(III) ion; assay = complex formation, from log β; test system = aqueous 0.15 M NaCl; conditions = 25 °C, MAH−1 complex species; measurement = −ΔG; value = 12.6 kcal/mol
Structure (SMILES) = Cc1cc(C)c(-c2cc(C)c(OP(=O)([O-])OCCC[C@H](C(=O)[O-])N3CCN(CC(=O)[O-])CCN(C(C(=O)[O-])C(=O)[O-])CCN(CC(=O)[O-])CC3)cc2C)c(C)c1.[Gd+3]; target = ALB; assay = albumin binding, variable temperature NMRD fit; test system = albumin-bound complex; conditions = 0.1 mM, pH 7.4, fit 5-35 °C data, together with: HSA 0.66 mM; measurement = rotational correlation time; value = 4.7 ns
